Experimental data of several laboratories.
Protocols differ between the studies behind these lines. ± gives the spread as reported. In brackets after ≈: the same amount, converted by molar mass.

The chains behind the UniProt entries cited, without tags or fusion partners.
UniProt Q9UQ07, whole entry: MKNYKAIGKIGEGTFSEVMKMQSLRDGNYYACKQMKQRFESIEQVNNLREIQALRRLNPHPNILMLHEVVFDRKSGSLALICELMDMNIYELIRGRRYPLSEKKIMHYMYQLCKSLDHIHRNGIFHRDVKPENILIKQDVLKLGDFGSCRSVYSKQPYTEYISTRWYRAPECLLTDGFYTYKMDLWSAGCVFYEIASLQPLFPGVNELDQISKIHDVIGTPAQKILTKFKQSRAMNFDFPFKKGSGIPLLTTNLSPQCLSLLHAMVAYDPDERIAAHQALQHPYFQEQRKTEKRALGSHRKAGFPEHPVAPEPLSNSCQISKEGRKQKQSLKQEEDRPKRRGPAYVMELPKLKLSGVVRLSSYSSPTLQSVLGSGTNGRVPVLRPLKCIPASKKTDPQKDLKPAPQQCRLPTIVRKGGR

`CSc1nc(Cl)cc(Sc2nnc(-c3cc(C(F)(F)F)cc(C(F)(F)F)c3)[nH]2)n1` has a CFU reduction of 6 log units (Escherichia coli; MC4100; 25 µM, 2 h, 37 °C, together with: PMBN 25 µg/mL).
With `O=c1ccc2nc3ccc(OCC4CCCCC4)cc3oc-2c1` the MIC90 was 138 µM (≈ 42.7 µg/mL) (Mycobacterium tuberculosis; mc2 6206 PA-824-resistant ddn mutant; 7 days).
`CCCCCCC1c2ccc(O)cc2Oc2cc(O)ccc21` gave an MIC of 7.5 µg/mL (≈ 25.1 µM) (Acinetobacter baumannii; ATCC 9955; together with: PMBN 25 µg/mL).
For `CC[C@H](C)[C@@H]1NC(=O)[C@H](CCC(=O)O)NC(=O)[C@@H]2CCCN2C(=O)[C@H](Cc2c[nH]cn2)NC(=O)[C@H](CC(=O)O)NC(=O)[C@H](Cc2ccc(O)cc2)NC(=O)[C@H](CC(N)=O)NC(=O)[C@@H]2CSSC[C@@H]3NC(=O)CNC(=O)CNC(=O)CNC(=O)[C@H](C)NC(=O)[C@H](C)NC(=O)CNC(=O)CNC(=O)[C@H](CSSC[C@H](NC3=O)C(=O)N[C@@H](CO)C(=O)N[C@@H](CC(=O)O)C(=O)N3CCC[C@H]3C(=O)N[C@@H](CCCNC(=N)N)C(=O)N2)NC1=O`, the inhibition was 0.37 ± 0.3% (Cav2.3c human Y1761F; Ba2+ current; 200 nM).
The peak amplitude of `CCN(CC)C(=O)Oc1ccc(C(=O)Nc2cccc3cc[nH]c23)cc1` is reported as 59 ± 9.9% (NMDA receptor EPSC, inhibitor, whole-cell patch clamp; CA1 interneurons, mouse, hippocampal slices; 10 µM; baseline: control).
For `Cc1ccc(S(=O)(=O)N(C)CC(=O)N(Cc2ccc(C3CCCCC3)cc2)c2ccc(C(=O)O)c(O)c2)cc1`, “Stat3 Tyr705 phosphorylation” read “decreased” (MDA-MB-231 xenograft, athymic nude mouse, tumour; intravenous, 3 mg/kg; baseline: vehicle).
With `O=c1ccc2nc3ccc(OCc4ccccc4)cc3oc-2c1` the MIC90 was 27 µM (≈ 8.19 µg/mL) (Mycobacterium tuberculosis; mc2 6206 PA-824-resistant ddn mutant; 7 days).
`CC#C/C(=N\OC[C@H]1COCCN1)c1ccc2ncnc(Nc3ccc(OCc4cccc(F)c4)c(Cl)c3)c2c1` gave an ED50 of 10.2 mg/kg (tumour growth; NCI-N87, nude mouse subcutaneous xenograft; oral, 21 days daily).
With `CCCCOc1ccc2nc3ccc(=O)cc-3oc2c1` the MIC90 was 6.7 µM (≈ 1.8 µg/mL) (Mycobacterium tuberculosis; mc2 6206 clofazimine-resistant fbiC mutant; 7 days).
Under “log2 fold change”, `CCN1CCN(Cc2ccc(NC(=O)c3ccc(C)c(/C=C/c4cnc5[nH]ccc5c4OC)c3)cc2C(F)(F)F)CC1` is recorded as -0.257 (MAPK/MAK/MRK overlapping kinase (MOK, Homo sapiens, UniProt Q9UQ07); inhibitor; 5 µM; baseline: no inhibitor).

A few entries again:
For `CC[C@H](C)[C@@H]1NC(=O)[C@H](CCC(=O)O)NC(=O)[C@@H]2CCCN2C(=O)[C@H](Cc2c[nH]cn2)NC(=O)[C@H](CC(=O)O)NC(=O)[C@H](Cc2ccc(O)cc2)NC(=O)[C@H](CC(N)=O)NC(=O)[C@@H]2CSSC[C@@H]3NC(=O)CNC(=O)CNC(=O)CNC(=O)[C@H](C)NC(=O)[C@H](C)NC(=O)CNC(=O)CNC(=O)[C@H](CSSC[C@H](NC3=O)C(=O)N[C@@H](CO)C(=O)N[C@@H](CC(=O)O)C(=O)N3CCC[C@H]3C(=O)N[C@@H](CCCNC(=N)N)C(=O)N2)NC1=O`, the inhibition was 0.37 ± 0.3% (Cav2.3c human Y1761F; Ba2+ current; 200 nM).
